Published values collected from several papers.
Protocols differ between the studies behind these lines. Numbers after ± are the reported error.
Cell line: WI-38
Technique: MTT

CC(=NNC(=N)N)c1nnn(-c2ccc(C#CC3(O)CCCCC3)cc2)c1C — IC50 (cytotoxicity): 70.2 µg/mL
CSc1nc(Nc2ccc(/C(C)=N/NC(=O)c3ccc([N+](=O)[O-])cc3[N+](=O)[O-])cc2)c(C#N)c(-c2ccccc2)n1 — IC50 (cell growth or viability): 63.4 µM
Cc1ccc(C(=O)/C=C/c2cn(CC(=O)Nc3nc(-c4ccccc4)cs3)nn2)cc1 — safe concentration (72 h, 100% viability, 10% FBS): 1180 nM
O=C(CCc1nc2cc(Cl)ccc2[nH]c1=O)Nc1ccc(O)cc1 — IC50 (cytotoxicity): 94.3 ± 3.5 µM
N=C(N)Nc1nc2ccccc2[nH]1 — cytotoxicity (concentration not given, 24 h): not toxic
CC1=[N+]2N=C(c3ccccc3)[O][Pd-2]2([Cl])[O+]=C2Oc3ccccc3C=C21 (stereo not drawn) — IC50 (cytotoxicity; 24 h): 57.2 ± 2.8 µM
COc1ccc(NC(=O)CCc2nc3cc(Cl)ccc3[nH]c2=O)cc1 — IC50 (cytotoxicity): 88.7 ± 3.9 µM
N=C(N)Nc1nc2ccccc2o1 — cytotoxicity (concentration not given, 24 h): not toxic
O=C(Cn1cc(/C=C/C(=O)c2ccccc2)nn1)Nc1nc(-c2ccccc2)cs1 — safe concentration (72 h, 100% viability, 10% FBS): 449 nM
